Measured values from different studies.
Every numbered part comes from another study and shows a few of its results, in no order. pIC50: −log10 of the molar value.
Sequence of UniProt P11388 (whole entry, looked up): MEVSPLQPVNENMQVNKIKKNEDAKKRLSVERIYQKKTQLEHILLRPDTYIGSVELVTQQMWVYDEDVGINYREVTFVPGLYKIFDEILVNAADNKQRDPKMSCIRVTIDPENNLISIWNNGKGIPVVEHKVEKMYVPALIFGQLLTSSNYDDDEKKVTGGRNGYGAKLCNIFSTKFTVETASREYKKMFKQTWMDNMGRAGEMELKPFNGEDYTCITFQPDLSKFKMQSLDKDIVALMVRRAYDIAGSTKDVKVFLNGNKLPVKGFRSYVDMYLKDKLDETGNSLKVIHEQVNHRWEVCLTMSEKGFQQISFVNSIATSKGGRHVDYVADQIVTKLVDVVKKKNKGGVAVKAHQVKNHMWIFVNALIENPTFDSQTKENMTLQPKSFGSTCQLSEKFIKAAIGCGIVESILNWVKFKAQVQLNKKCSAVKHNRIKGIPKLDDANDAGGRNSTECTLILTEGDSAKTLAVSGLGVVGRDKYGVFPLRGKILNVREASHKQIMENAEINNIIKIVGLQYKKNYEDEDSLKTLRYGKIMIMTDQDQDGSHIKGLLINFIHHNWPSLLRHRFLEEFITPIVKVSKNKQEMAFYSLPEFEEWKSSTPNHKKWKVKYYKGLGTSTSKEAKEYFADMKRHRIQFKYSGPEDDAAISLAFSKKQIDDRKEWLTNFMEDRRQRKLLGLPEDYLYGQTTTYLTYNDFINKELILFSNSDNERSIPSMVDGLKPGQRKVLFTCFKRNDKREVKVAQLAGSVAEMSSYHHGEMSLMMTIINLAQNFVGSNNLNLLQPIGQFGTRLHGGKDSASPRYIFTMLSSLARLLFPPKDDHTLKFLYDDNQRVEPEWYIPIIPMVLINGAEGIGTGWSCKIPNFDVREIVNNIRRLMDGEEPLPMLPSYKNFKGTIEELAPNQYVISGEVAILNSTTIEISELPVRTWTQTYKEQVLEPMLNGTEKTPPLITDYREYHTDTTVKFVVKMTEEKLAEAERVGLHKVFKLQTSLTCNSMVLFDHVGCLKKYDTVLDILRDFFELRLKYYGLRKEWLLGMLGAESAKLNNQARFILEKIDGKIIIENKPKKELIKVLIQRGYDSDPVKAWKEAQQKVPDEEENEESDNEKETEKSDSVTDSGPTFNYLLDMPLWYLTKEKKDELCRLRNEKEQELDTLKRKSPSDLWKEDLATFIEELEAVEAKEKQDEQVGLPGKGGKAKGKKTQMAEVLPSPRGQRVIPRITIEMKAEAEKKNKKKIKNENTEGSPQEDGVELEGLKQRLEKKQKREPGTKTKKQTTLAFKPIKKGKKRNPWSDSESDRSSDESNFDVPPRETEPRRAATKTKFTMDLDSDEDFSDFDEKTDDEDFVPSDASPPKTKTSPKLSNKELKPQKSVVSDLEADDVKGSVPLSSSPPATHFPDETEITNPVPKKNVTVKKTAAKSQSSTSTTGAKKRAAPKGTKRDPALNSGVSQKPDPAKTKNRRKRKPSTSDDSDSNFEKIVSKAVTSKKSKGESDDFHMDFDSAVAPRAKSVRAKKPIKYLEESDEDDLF

Sample 1
Target: Replicase polyprotein 1ab, nsp14 (rep, Severe acute respiratory syndrome coronavirus 2, UniProt P0DTD1)
Action: inhibitor
| SMILES | pIC50 |
| --- | --- |
| Cc1c(S(=O)(=O)N2CCn3cccc3C2)cc(C(=O)NCc2cccnc2N2CCCC2)n1C | 8.92 |
| COc1ccccc1CNC(=O)c1cc(S(=O)(=O)N2CCCC(C)C2)c(C)n1C (stereo not drawn) | 6.00 |
| COc1ccccc1CNC(=O)c1cc(S(=O)(=O)N2CCOCC2)c(C)n1C | < 5.20 |
| COc1ccccc1CNC(=O)c1cc(S(=O)(=O)N2CCC(C)CC2)c2n1CCC2 | 6.42 |

Further values, each from its own experiment
| SMILES | tested on | test | test system | conditions | scale | quantity | value |
| --- | --- | --- | --- | --- | --- | --- | --- |
| Fc1ccccc1Cc1nc(-c2nc(C(F)(F)F)n[nH]2)cn2ccnc12 |  | item: Headache | healthy humans | oral, 10 mg, fasted, single dose |  | subjects with adverse events | 7.1% |
| N#CCC1CCN(c2nc(Nc3ccc(N4CCC(O)CC4)cc3)c3c(=O)[nH]ncc3n2)CC1 |  | vs placebo, Olink multiplex | human, serum | 80 mg, day 15, unit not given | baseline: placebo | GIF level difference | 1.42 |
| COC(=O)Nc1c(N)nc(-c2nn(Cc3ccccc3F)c3ncc(F)cc23)nc1N |  |  | human, male, plasma | 15 mg, geometric mean, together with: aspirin |  | Cmax | 414 ng/mL |
| CC1COc2ccccc2N1C(=O)C(Cl)Cl (stereo not drawn) | glutathione S-transferase |  | male rhesus monkey liver cytosol | 5 µM, 30 min, pH 7.4, together with: GSH |  | enantiomeric fraction | 0 |
| COc1cc([C@@H]2c3cc4c(cc3[C@@H](O[C@@H]3O[C@@H]5CO[C@@H](C)O[C@H]5[C@H](O)[C@H]3O)[C@H]3COC(=O)[C@H]23)OCO4)cc(OC)c1O | TOP2A (Homo sapiens, UniProt P11388) | enzyme activity, inhibitor |  | 125 µM |  | inhibition | 100% |

For quick reference, copied from above (further values, each from its own experiment):
| SMILES | tested on | test | test system | conditions | scale | quantity | value |
| --- | --- | --- | --- | --- | --- | --- | --- |
| COC(=O)Nc1c(N)nc(-c2nn(Cc3ccccc3F)c3ncc(F)cc23)nc1N |  |  | human, male, plasma | 15 mg, geometric mean, together with: aspirin |  | Cmax | 414 ng/mL |
